Experimental data pooled from the literature.
± marks the error that the study gave.

SMILES	organism	test	system	conditions	IC50 [nM]
CCN(CC)CC#CCNc1ccnc2cc(Cl)ccc12	Plasmodium falciparum	parasite growth	3D7	blood stage	53
O=[N+]([O-])c1ccc(/C=N/N=C/c2ccc(F)cc2)o1	Trypanosoma brucei gambiense	parasite growth, CellTiter-Glo	IL1922 bloodstream form	72 h	2480 ± 670
CCOC(=O)C(NC(=O)CN1C(=O)/C(=C/c2ccc3c(c2)OCO3)SC1=S)C(C)C (stereo not shown)	Trypanosoma brucei gambiense	cell viability	IL1922	72 h	> 69000
N[C@H]1C[C@@H]1c1ccc(-c2cccc(O)c2)cc1	herpes simplex virus 1	viral IE gene expression, qRT-PCR	HFF	4 h pretreatment, infection 2 h	~3000
CCOC(=O)CNC(=O)CN1C(=O)S/C(=C\c2ccc(OC)c(O)c2)C1=O	Trypanosoma brucei gambiense	cell viability	IL1922	72 h	> 64000
C#CCN1CCc2c3n(c4ccccc24)C(=O)C(=C)C3(C(=O)OC)C1 (stereo not shown)	Hepatitis B virus	viral replication, inhibitor, ELISA	HePAD38		2480
COc1ccc(/C=N/N=C/c2ccc([N+](=O)[O-])s2)cc1	Trypanosoma brucei gambiense	parasite growth, CellTiter-Glo	IL1922 bloodstream form	72 h	1290 ± 200
C#CCN1CCC23C(=C(C(=O)OC)CC(C(=O)OC)C12)Nc1ccccc13 (stereo not shown)	Hepatitis B virus	viral replication, inhibitor, ELISA	HePAD38		4980
Cc1cc(N2CC[C@@](C#N)(C3(C)CC3)C2=O)cc(C(=O)NCc2cc(F)cc(-c3cnn(C)c3)c2)n1	Plasmodium vivax	parasite growth, ex vivo drug susceptibility	Brazilian clinical field isolates		15
O=[N+]([O-])c1ccc(/C=N/N=C/c2ccc(OCc3ccccc3)cc2)s1	Trypanosoma evansi	parasite growth, CellTiter-Glo	Tansui bloodstream form	72 h	12300 ± 2960
CCC(NC(=O)CN1C(=O)N/C(=C\c2ccc(C)cc2)C1=O)C(=O)OC (stereo not shown)	Trypanosoma brucei gambiense	cell viability	IL1922	72 h	> 64000
O=C(CCNC(=O)c1ccsc1)Nc1cccc(Oc2ccc(Cl)cc2)c1	Hepatitis B virus	viral replication, inhibitor, qPCR	HepG2.2.15.7		900
CCOC(=O)C(C)NC(=O)CN1C(=O)S/C(=C\c2ccc(F)cc2)C1=O (stereo not shown)	Trypanosoma brucei gambiense	cell viability	IL1922	72 h	> 64000
O=[N+]([O-])c1ccc(/C=N/N=C/c2ccc(O)cc2)o1	Trypanosoma evansi	parasite growth, CellTiter-Glo	Tansui bloodstream form	72 h	6830 ± 2660
CC(C)(C)OC(=O)N1CCC(C(=O)N[C@@H](Cc2ccc3ccccc3c2)C(=O)O)(c2ccc3ccccc3c2)CC1	Human immunodeficiency virus 1	viral replication, inhibitor			57700
O=[N+]([O-])c1ccc(/C=N/N=C/c2ccc(Br)cc2)s1	Trypanosoma evansi	parasite growth, CellTiter-Glo	Tansui bloodstream form	72 h	1830 ± 540
CCOC(=O)C(CC)NC(=O)CN1C(=O)S/C(=C\c2ccc(OC)cc2)C1=O (stereo not shown)	Trypanosoma brucei gambiense	cell viability	IL1922	72 h	> 58000
O=[N+]([O-])c1ccc(/C=N/N=C/c2ccc(F)cc2)s1	Trypanosoma evansi	parasite growth, CellTiter-Glo	Tansui bloodstream form	72 h	670 ± 20
Nc1nc(-c2ccccc2)nc2[nH]nc(Nc3ccc(F)cc3)c12	coxsackievirus B3	plaque formation, plaque reduction	HeLa, Nancy wild type		250 ± 60

Excerpt of the above:
SMILES	organism	test	system	conditions	IC50 [nM]
O=[N+]([O-])c1ccc(/C=N/N=C/c2ccc(O)cc2)o1	Trypanosoma evansi	parasite growth, CellTiter-Glo	Tansui bloodstream form	72 h	6830 ± 2660
CC(C)(C)OC(=O)N1CCC(C(=O)N[C@@H](Cc2ccc3ccccc3c2)C(=O)O)(c2ccc3ccccc3c2)CC1	Human immunodeficiency virus 1	viral replication, inhibitor			57700
